{"data": "Results pooled from the literature", "note": "Lines come from different studies, so protocols differ. ± gives the spread as reported.", "UniProt P10632, sequence (whole entry, looked up)": "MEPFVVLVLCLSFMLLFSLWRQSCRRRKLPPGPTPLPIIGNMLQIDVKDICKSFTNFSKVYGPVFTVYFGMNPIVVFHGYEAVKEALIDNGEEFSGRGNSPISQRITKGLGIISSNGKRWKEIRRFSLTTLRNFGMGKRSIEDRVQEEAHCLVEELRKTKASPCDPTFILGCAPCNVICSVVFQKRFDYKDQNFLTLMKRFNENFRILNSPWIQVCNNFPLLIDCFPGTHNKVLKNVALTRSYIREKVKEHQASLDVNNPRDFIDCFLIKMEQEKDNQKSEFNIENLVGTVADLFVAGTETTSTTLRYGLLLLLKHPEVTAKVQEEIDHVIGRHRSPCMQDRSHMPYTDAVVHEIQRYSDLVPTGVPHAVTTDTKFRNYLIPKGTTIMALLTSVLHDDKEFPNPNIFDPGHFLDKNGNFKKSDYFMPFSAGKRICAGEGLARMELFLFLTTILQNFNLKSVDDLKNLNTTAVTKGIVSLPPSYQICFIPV", "UniProt P21397, sequence (whole entry, looked up)": "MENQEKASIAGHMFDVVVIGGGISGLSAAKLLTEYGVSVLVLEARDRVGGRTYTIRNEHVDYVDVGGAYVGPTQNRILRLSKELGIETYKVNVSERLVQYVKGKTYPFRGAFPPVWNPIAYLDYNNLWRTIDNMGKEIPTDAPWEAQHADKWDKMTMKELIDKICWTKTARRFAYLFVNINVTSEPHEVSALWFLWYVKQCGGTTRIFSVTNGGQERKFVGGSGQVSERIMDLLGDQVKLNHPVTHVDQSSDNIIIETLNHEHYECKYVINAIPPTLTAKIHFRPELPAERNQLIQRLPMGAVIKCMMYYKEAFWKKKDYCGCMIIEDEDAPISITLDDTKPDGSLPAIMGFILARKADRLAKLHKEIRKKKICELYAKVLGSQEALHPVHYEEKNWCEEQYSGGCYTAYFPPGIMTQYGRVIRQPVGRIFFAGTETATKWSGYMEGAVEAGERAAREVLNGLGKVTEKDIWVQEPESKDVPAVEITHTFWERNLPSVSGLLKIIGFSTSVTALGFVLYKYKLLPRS"}
{"Compound": "Nc1ncnc2c1c(I)cn2[C@@H]1O[C@H](CO)C[C@H]1O", "tested on": "MRC-5 SV2", "assay": "cytotoxicity, resazurin", "test system": "medium with 5% FBS", "conditions": "72 h", "endpoint": "EC50", "value": "3.4 ± 1.3 µM"}
{"Compound": "N=C(NO)NN=Cc1nccc2ccccc12", "tested on": "A549", "assay": "morphology", "endpoint": "cytotoxic concentration", "value": "> 50 µM"}
{"Compound": "N=C(N)NCCC[C@@H]1NC(=O)[C@H](CCCNC(=N)N)NC(=O)[C@H](CCCNC(=N)N)NC(=O)[C@H](Cc2c[nH]c3ccccc23)NC(=O)[C@H](Cc2ccc3ccccc3c2)NC(=O)[C@H](Cc2ccc3ccccc3c2)NC(=O)[C@H](CCCNC(=N)N)NC1=O", "tested on": "human red blood cells", "assay": "hemolysis", "endpoint": "HC50", "value": "105 µg/mL"}
{"Compound": "C=CC(=O)Nc1cc(Nc2nccc(-c3cn(C)c4ccccc34)n2)c(OCC(F)(F)F)nc1N(C)CCN(C)C", "tested on": "Cytochrome P450 2C8 (CYP2C8, Homo sapiens, UniProt P10632)", "assay": "enzyme activity, inhibitor", "test system": "human, liver microsomes", "conditions": "33.3 µM", "endpoint": "activity vs control", "value": "82%"}
{"Compound": "CN(C)C(=O)C1CN1S(=O)(=O)c1ccc(C(C)(C)C)cc1 (stereo not drawn)", "tested on": "Balb/c 3T3 fibroblasts", "assay": "cytotoxicity, neutral red uptake", "test system": "DMEM with 5% FBS", "conditions": "24 h", "endpoint": "IC50", "value": "12 ± 1 µM"}
{"Compound": "CC1(C)CCCC(C)(C2CCC3(C)C2C(O)CC2C4(C)CCC(OC(=O)NCc5ccccc5)C(C)(C)C4C(OC(=O)NCc4ccccc4)CC23C)O1 (stereo not drawn)", "tested on": "Hep3B", "assay": "cell growth or viability, MTT", "conditions": "24 h", "endpoint": "IC50", "value": "> 30 µM"}
{"Compound": "O=[N+]([O-])c1ccc(-c2nc3c4ccccc4c4ccccc4c3[nH]2)cc1", "tested on": "PHA-stimulated human PBMCs", "assay": "MTS", "conditions": "100 µM, 7 days", "endpoint": "cytotoxicity", "value": "46.3%"}
{"Compound": "CC(C)=CCc1c2c(c(O)c3c(=O)c(-c4ccc(O)cc4)coc13)CC(C(C)(C)O)O2 (stereo not drawn)", "tested on": "RAW264.7", "assay": "cell growth or viability, MTT", "conditions": "6.25 µg/mL, 24 h", "endpoint": "viability", "value": "138%"}
{"Compound": "CCCN(CC(=O)N(CCC)CC(=O)N(CCC)CC(=O)N(CCC)CC(=O)N(CC(=O)N(CCC)CC(=O)N(CCC)CC(=O)N(CCC)CC(=O)N(CCC)CC(=O)N(CC(=O)N(CCC)CC(=O)N(CCC)CC(=O)N(CCC)CC(=O)N(CCC)CC(=O)N(CC(N)=O)Cc1cn(CCCNC(=O)CCCOc2cccc(-c3nc4ccc(-c5nc6ccc(N7CCN(C)CC7)cc6[nH]5)cc4[nH]3)c2)nn1)Cc1cn(CCCNC(=O)CCCOc2cccc(-c3nc4ccc(-c5nc6ccc(N7CCN(C)CC7)cc6[nH]5)cc4[nH]3)c2)nn1)Cc1cn(CCCNC(=O)CCCOc2cccc(-c3nc4ccc(-c5nc6ccc(N7CCN(C)CC7)cc6[nH]5)cc4[nH]3)c2)nn1)C(=O)CNCc1cn(CCCNC(=O)CCCOc2cccc(-c3nc4ccc(-c5nc6ccc(N7CCN(C)CC7)cc6[nH]5)cc4[nH]3)c2)nn1", "tested on": "C2C12", "assay": "flow cytometry", "conditions": "5 µM, 48 h", "endpoint": "ligand- and PI-positive cells", "value": "1.3%"}
{"Compound": "N=C(N)NCCC[C@@H]1NC(=O)[C@H](CCCCNC(=O)CC[C@H](NC(=O)CC[C@H](NC(=O)CN2CCN(CC(=O)O)CCN(CC(=O)O)CCN(CC(=O)O)CC2)C(=O)N[C@@H](CCC(=O)NCCCC[C@@H]2NC(=O)[C@@H](Cc3ccccc3)NC(=O)[C@H](CC(=O)O)NC(=O)CNC(=O)[C@H](CCCNC(=N)N)NC2=O)C(=O)NCCCC[C@@H]2NC(=O)[C@@H](Cc3ccccc3)NC(=O)[C@H](CC(=O)O)NC(=O)CNC(=O)[C@H](CCCNC(=N)N)NC2=O)C(=O)NCCCC[C@@H]2NC(=O)[C@@H](Cc3ccccc3)NC(=O)[C@H](CC(=O)O)NC(=O)CNC(=O)[C@H](CCCNC(=N)N)NC2=O)NC(=O)[C@@H](Cc2ccccc2)NC(=O)[C@H](CC(=O)O)NC(=O)CNC1=O [indium-111 labelled]", "test system": "female athymic nu/nu mice, spleen", "conditions": "intravenous, 111 kBq, 24 h", "endpoint": "tissue uptake", "value": "1.15 ± 0.84 %ID/g"}
{"Compound": "CC1(C)CCCC(C)(C2CCC3(C)C2C(O)CC2C4(C)CCC(O)C(C)(C)C4C(OC(=O)NC4CCCCC4)CC23C)O1 (stereo not drawn)", "tested on": "Hep3B", "assay": "cell growth or viability, MTT", "conditions": "24 h", "endpoint": "IC50", "value": "> 30 µM"}
{"Compound": "COc1ccc(CCCN[C@H]2CCC[C@@H]2CN[C@@H]2CCC[C@H]2CNCCCCN[C@@H]2CCC[C@H]2CN)cc1", "tested on": "Amine oxidase [flavin-containing] A (MAOA, Homo sapiens, UniProt P21397)", "assay": "enzyme activity, inhibitor", "conditions": "added: tyramine 50 µM", "endpoint": "Ki", "value": "330 ± 31 µM"}
{"Compound": "NS(=O)(=O)Nc1ncnc(OCCOc2ncc(Br)cn2)c1-c1ccc(Br)cc1", "assay": "M6 formation", "test system": "female Beagle dog, liver microsomes", "conditions": "500 mg/kg daily for 4 weeks", "endpoint": "Km", "value": "6.7 ± 2.2 µM"}
{"Compound": "[64Cu+2].c1cnc(CNCc2ccc(CN3CCCN4CCNCCCN(CC4)CC3)cc2)nc1", "tested on": "CXCR4", "test system": "NOD/SCID mouse, U87 and U87-stb-CXCR4 xenografts, heart", "conditions": "iv, 90 min, ex vivo, added: AMD3465 25 mg/kg sc before tracer", "endpoint": "tissue uptake", "value": "0.85 ± 0.17 %ID/g"}
{"Compound": "COc1ccc(-c2coc3c(CC=C(C)C)c(O)c(CC=C(C)C)c(O)c3c2=O)cc1O", "tested on": "A549", "assay": "cell growth or viability, MTT", "conditions": "12.5 µg/mL", "endpoint": "viability", "value": "113%"}
{"Compound": "COc1cc(CN2CCN(c3ccccc3[N+](=O)[O-])CC2)c2cc3[n+](cc2c1O)CCc1cc2c(cc1-3)OCO2", "tested on": "MDCK", "assay": "cell growth or viability, SRB", "conditions": "48 h", "endpoint": "CC50", "value": "129 µg/mL"}
{"Compound": "COC(=O)NC(C(=O)NN(Cc1ccc(-c2cc3ccccc3s2)cc1)CC(O)(Cc1ccccc1)C(=O)NC1c2ccccc2CC1O)C(C)(C)C (stereo not drawn)", "tested on": "Caco-2", "conditions": "pH 7.4, 1% BSA in receiver", "endpoint": "Papp B-to-A", "value": "1.7 ± 0.1 ×10⁻⁶ cm/s"}
{"Compound": "CCC(=O)N(C)c1ccc(Cl)c(Cl)c1", "tested on": "CAR3 constitutive androstane receptor, human", "assay": "reporter gene, agonist", "conditions": "10 µM", "scale": "baseline: vehicle", "endpoint": "fold activation", "value": "0.69 fold"}
